Experimental data pooled from the literature.
Numbered parts are unrelated; each lists some results of a single study.
Chain of UniProt P29317 (whole entry, looked up): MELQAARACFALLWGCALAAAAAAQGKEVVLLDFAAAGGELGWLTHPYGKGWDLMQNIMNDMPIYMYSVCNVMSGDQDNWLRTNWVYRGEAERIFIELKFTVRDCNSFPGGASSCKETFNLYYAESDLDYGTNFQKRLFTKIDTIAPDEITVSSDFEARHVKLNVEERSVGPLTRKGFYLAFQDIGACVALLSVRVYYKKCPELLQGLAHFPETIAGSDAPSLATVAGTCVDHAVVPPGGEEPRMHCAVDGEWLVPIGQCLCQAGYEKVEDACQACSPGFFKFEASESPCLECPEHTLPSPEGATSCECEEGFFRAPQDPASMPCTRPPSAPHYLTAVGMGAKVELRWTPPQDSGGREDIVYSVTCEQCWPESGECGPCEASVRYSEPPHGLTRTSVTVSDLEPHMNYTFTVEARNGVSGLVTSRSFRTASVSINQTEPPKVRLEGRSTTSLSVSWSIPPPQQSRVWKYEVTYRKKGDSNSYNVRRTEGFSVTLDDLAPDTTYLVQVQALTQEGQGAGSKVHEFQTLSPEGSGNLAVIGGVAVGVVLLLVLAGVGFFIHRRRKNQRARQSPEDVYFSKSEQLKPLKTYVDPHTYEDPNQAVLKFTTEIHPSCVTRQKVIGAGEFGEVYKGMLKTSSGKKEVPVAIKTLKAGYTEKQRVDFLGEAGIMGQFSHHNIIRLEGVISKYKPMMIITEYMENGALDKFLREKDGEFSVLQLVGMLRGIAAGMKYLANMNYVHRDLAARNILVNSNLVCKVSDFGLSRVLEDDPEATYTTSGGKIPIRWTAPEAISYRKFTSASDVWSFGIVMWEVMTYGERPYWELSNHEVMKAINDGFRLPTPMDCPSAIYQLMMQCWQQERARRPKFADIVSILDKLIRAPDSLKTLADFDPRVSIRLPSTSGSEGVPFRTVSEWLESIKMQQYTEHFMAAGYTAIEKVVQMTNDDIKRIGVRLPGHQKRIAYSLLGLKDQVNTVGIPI
Chain of UniProt P51812 (whole entry, looked up): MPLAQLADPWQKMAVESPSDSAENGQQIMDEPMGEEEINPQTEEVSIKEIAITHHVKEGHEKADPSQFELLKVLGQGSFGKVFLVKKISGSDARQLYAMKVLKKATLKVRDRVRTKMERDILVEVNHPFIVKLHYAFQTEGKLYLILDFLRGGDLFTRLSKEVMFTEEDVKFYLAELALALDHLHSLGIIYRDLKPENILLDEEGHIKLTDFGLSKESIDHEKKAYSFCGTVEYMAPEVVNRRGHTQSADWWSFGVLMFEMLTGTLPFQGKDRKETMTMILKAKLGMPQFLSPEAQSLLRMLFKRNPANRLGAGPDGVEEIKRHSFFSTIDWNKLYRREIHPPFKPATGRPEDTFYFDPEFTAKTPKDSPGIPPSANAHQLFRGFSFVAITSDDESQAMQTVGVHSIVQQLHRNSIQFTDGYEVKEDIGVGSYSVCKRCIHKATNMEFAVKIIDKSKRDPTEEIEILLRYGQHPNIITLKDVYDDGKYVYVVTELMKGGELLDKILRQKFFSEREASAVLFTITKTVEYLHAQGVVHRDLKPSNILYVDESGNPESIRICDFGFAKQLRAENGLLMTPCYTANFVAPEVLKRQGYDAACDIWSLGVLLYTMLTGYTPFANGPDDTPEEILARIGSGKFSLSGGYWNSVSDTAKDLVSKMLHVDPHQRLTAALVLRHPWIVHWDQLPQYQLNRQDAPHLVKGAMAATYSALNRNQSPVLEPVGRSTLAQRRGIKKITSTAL
Chain of UniProt Q96SB4 (whole entry, looked up): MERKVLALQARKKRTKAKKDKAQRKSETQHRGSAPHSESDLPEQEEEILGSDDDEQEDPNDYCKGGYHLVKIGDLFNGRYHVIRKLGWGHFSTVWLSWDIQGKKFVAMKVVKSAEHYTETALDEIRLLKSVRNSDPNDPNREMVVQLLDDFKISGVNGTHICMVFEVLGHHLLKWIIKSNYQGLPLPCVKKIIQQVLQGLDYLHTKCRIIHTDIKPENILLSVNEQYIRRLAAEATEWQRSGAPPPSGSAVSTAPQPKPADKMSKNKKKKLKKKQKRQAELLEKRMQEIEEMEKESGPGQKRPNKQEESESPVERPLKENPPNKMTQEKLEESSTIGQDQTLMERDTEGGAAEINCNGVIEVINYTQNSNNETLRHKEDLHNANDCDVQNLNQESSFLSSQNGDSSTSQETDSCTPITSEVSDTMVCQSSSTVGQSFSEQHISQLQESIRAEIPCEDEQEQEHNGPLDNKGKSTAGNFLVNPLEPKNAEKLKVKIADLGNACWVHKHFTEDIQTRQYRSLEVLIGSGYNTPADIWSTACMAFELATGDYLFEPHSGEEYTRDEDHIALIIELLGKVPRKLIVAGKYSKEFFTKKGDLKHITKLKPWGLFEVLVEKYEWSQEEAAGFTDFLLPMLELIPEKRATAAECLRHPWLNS
Chain of UniProt Q13153 (whole entry, looked up): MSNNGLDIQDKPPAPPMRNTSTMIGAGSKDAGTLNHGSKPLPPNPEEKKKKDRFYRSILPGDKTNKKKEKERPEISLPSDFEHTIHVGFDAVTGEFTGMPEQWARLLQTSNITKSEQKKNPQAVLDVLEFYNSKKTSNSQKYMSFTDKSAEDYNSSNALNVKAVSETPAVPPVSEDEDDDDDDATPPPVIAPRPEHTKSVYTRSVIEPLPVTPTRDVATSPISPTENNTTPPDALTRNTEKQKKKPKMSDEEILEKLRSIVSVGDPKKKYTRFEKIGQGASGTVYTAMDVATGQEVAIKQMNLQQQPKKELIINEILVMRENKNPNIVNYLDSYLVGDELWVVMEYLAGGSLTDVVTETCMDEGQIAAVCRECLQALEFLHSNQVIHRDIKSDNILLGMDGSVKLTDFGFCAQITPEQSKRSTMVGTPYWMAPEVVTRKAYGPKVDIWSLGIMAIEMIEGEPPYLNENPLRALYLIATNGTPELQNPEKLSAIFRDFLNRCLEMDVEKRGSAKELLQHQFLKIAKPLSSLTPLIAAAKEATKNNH

Set 1
Target: Alpha-1B adrenergic receptor (ADRA1B, Homo sapiens, UniProt P35368)
Chain of UniProt P35368 (whole entry, looked up): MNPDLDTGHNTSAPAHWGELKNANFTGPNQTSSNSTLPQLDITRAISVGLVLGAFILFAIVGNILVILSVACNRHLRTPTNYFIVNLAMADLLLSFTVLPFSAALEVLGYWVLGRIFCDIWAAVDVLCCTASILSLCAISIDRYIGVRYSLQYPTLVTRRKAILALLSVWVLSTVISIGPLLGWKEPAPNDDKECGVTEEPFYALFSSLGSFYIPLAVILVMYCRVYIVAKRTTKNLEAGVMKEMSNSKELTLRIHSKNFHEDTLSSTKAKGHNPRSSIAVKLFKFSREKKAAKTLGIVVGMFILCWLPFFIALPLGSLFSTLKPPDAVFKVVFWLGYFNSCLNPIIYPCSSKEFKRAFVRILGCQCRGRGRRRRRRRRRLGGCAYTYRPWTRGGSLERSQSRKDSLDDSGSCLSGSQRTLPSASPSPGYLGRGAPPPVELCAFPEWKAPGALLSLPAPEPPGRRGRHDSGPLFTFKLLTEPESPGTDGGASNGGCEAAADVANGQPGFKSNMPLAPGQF
Read-out: ligand displacement
Tested at: 10 µM
With `Cn1cc(Cl)c2c(Oc3c(F)cc(Nc4cc(Cl)nc(N)n4)cc3F)ccnc21` the inhibition was 18.3%.
`CO[C@H]1CC[C@H](CNc2ccc(S(=O)(=O)NC(=O)c3ccc(N4CCN(CC5=C(c6ccc(Cl)cc6)CC(C)(C)CC5)CC4)cc3Oc3cnc4[nH]ccc4c3)cc2[N+](=O)[O-])CC1` has an inhibition of 1.2%.
With `CN([C@@H]1CCc2c(CC(=O)O)c3ccccc3n2C1)S(=O)(=O)c1ccc(F)cc1` the inhibition was -8.18%.
For `Nc1nc(NCc2ccccc2)nc(-c2ccccc2CO)n1`, the inhibition was -15.4%.

Set 2
SMILES: Oc1cccc(-c2nc(N3CCOCC3)c3oc4ncccc4c3n2)c1
Read-out: enzyme activity
Mode: inhibitor
Tested at: 0.5 µM
Baseline: control
The remaining activity was 101% (RPS6KA3 (Homo sapiens, UniProt P51812)).
PAK1 (Homo sapiens, UniProt Q13153) — remaining activity: 97.6%.
The remaining activity was 105% (SRPK1 (Homo sapiens, UniProt Q96SB4)).
It gave 99.9% for remaining activity (EPHA2 (Homo sapiens, UniProt P29317)).

Set 3
Target: TAR DNA-binding protein 43, full length, His tag (TARDBP, Homo sapiens, UniProt Q13148, residues 1-414)
Technique: RNA Bind-n-Seq
Form: RNA
Medium: in vitro
Tested at: 20 nM
Setting: 6-mer, flanks averaged, single round
Together with: 150 mM LiCl
Baseline: input library
Reading: higher = stronger binding
Under “6-mer enrichment (R)”, `CGGUGA` is recorded as 0.991.
For `UCGAGG`, “6-mer enrichment (R)” read 0.957.
`GCCCUC` — result for “6-mer enrichment (R)”: 1.05.
`GUUUCG` — result for “6-mer enrichment (R)”: 1.06.
`GGCUUA` — result for “6-mer enrichment (R)”: 0.924.
Under “6-mer enrichment (R)”, `CUAUGC` is recorded as 0.892.
Under “6-mer enrichment (R)”, `GAGCUC` is recorded as 0.942.
`CCACAU`: “6-mer enrichment (R)” 0.93.

Set 4
Target: Prothrombin, mature alpha-thrombin (F2, Homo sapiens, UniProt P00734)
Technique: aptamer microarray, sandwich
Form: DNA with 2'F-ANA
Medium: in vitro
Tested at: 200 nM
Setting: whole 15-mer aptamer, many near background
Together with: Cy3 exosite-II aptamer, 400 nM
Reading: higher = stronger binding
Oligonucleotide: GGTTGGTGTGGTTGG
`2'F-ANA at 1 2 5 7 8 9 14 15`: “mean fluorescence intensity” 46 a.u.
Under “mean fluorescence intensity”, `2'F-ANA at 1 2 3 5 6 8 9 11 12 13 14 15` is recorded as 50.4 a.u.
`2'F-ANA at 3 4 5 7 13 14 15`: “mean fluorescence intensity” 51.6 a.u.
`2'F-ANA at 1 4 7 8 9 10`: “mean fluorescence intensity” 52.2 a.u.
`2'F-ANA at 2 3 4 5 6 8 9 10 11 13` — result for “mean fluorescence intensity”: 56.3 a.u.
For `2'F-ANA at 3 11 12 13 14 15`, “mean fluorescence intensity” read 581 a.u.
`2'F-ANA at 1 2 3 4 6 9 10 12 15`: “mean fluorescence intensity” 74.6 a.u.
Under “mean fluorescence intensity”, `2'F-ANA at 2 3 4 5 6 10 11 12 13 14 15` is recorded as 52.8 a.u.

Repeated from above (set 2):
It gave 99.9% for remaining activity (EPHA2 (Homo sapiens, UniProt P29317)).
